Experimental data gathered from unrelated publications.
A part holds a random share of what one study measured. Substitutions count along the parent as printed.

Sample 1
Target: ABI1, truncated, D143A, DHFR fusion (Arabidopsis thaliana, UniProt P49597)
Method: DHFR PCA, dose-response
Medium: yeast
Notes: Hill fit, mean, not affinity
With: (+)-ABA, dose series
Direction: lower = more sensitive
Starting sequence: PYL1, truncated, DHFR fusion (Arabidopsis thaliana, UniProt Q8VZS8); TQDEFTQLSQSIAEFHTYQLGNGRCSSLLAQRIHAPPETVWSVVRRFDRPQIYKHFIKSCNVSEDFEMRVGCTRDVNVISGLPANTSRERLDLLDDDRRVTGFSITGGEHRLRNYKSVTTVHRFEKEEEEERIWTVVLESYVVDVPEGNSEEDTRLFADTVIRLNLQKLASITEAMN
Substitution	ABA EC50 [µM]
T39W	10.1
N85P	77.3
R99H	3.77
E128N	1.76
R155S	32.7
S140G	344
I52D	4.88
E139C	2.44
Q7P	3.77
S9E	2.06
I12M	15.5
T17N	11.9
H55Q	0.202
E151K	3.32
T160Q	30.7
C25H	125
I52L	4.92
E130Y	5.73
S150D	5.38

Sample 2
Target: CCND1, cyclin fold, Cln2 fusion (human)
Method: yeast growth competition, sequencing
Medium: yeast
Notes: strong parent motif
Relative to: not given
Direction: higher = stronger binding
Starting sequence: CDKN1A docking peptide (human); SKACRRLFGPVDS
Substitution	normalised enrichment score
R6W	0.595
K2N	2.77
V11I	2.75
R5F	0.118
R6H	0.968
P10Y	1.16
A3E	0.151
C4Q	1.39
D12M	1.72
D12I	1.45
R5W	0.384
K2T	3.15
C4E	0.166
F8G	0.122
K2V	1.7
G9N	2.6
P10I	1.24
A3T	1.78
K2G	2.82
V11N	3.69
L7V	0.231
R6Q	3.41
C4D	0.244
V11S	3.54
A3L	0.472

Sample 3
Target: Interferon regulatory factor 5, full length, phosphomimetic (IRF5, Homo sapiens, UniProt Q13568-2, residues 1-514, K96S/S451D/S453D/S456D/S462D)
Method: protein-binding microarray
Molecule type: double-stranded DNA, one strand shown
Medium: in vitro
Tested at: 250 nM
Notes: 60-bp whole probe
With: salmon DNA 0.4 mg/ml
Relative to: random background probes
Direction: higher = stronger binding
Shared flanks, not repeated: GCCTAGCAC … GTCTTGATTCGCTTGACGCTGCTG
Oligonucleotide	log fluorescence [z-score]
TCTGACCCCCTGCGCGGCAGGTGCTAG	-0.416
ATATACCTGAATATCTTCAGGTGCTAG	0.314
GATGATATCGGGACTGGAGACGTGCTA	1.08
TAAGGAGGCAGGGATGCTCCGTGCTAG	-0.497
GGCAATTTGAGTCACTGTGTGTGCTAG	-0.455
TTAGATCTCAGAATGGATTAGTGCTAG	-0.19
TCACTTTCAGTTCTCCCACTGTGCTAG	8.3
TCAAATTTACTTTCTACACTGTGCTAG	3.44
TTAGGTATCCGTTTCGGTTAGTGCTAG	8.53
GACGGTTTCGGGACGGGGGACGTGCTA	6.27
TTAGGTTTCCTTATTCTTTAGTGCTAG	1.07
CTATATTTGCTTCAGGTTTAGTGCTAG	0.587
GTAAATCTTTTTCCCTATTAGTGCTAG	1.28
GGCGATTCCAGTTTCGAGACGTGCTAG	5.18
GACGGTTTCGGTATGGGGACGTGCTAG	9.51
TTAGGACTGCTACTCCTTTAGTGCTAG	-0.282
TGGCCTCTAGGTTTTCTGGAGTGCTAG	-0.526

Sample 4
Target: CEBPD, bZIP domain (human)
Method: DHFR protein complementation
Medium: yeast
Notes: single substitutions, most at no-binding floor
Relative to: wild-type JUN-FOS pair
Direction: higher = stronger binding
Starting sequence: JUN, bZIP domain (human); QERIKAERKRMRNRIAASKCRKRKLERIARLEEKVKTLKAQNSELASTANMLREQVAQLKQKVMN; partner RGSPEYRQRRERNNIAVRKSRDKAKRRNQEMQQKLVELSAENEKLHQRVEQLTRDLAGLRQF
Substitution	binding fitness
E32W	-1.48 natural log
K36S	-1.38 natural log
A57G	-1.34 natural log
R53D	-1.36 natural log
S47W	-1.48 natural log
L38P	-1.4 natural log
V35A	-1.4 natural log
S47D	-1.32 natural log
S43K	-1.32 natural log
S47V	-1.32 natural log
K34S	-1.41 natural log
T48N	-1.08 natural log
M51H	-1.44 natural log
A57Q	-1.31 natural log
V35Q	-1.4 natural log
E44G	-1.47 natural log
E32G	-1.43 natural log
A40T	-1.39 natural log

Some of these lines once more (sample 1):
Substitution	ABA EC50 [µM]
Q7P	3.77
S9E	2.06
I12M	15.5
T17N	11.9
H55Q	0.202
E151K	3.32
T160Q	30.7
C25H	125
I52L	4.92
E130Y	5.73
